Results from different studies.
Compare with care: the assays were run in different laboratories. ± gives the spread as reported.

Sequences of proteins named here, by UniProt entry; tags and fusion partners are left off. Residues count along the entry.
UniProt P17787, 26-502 limits assumed: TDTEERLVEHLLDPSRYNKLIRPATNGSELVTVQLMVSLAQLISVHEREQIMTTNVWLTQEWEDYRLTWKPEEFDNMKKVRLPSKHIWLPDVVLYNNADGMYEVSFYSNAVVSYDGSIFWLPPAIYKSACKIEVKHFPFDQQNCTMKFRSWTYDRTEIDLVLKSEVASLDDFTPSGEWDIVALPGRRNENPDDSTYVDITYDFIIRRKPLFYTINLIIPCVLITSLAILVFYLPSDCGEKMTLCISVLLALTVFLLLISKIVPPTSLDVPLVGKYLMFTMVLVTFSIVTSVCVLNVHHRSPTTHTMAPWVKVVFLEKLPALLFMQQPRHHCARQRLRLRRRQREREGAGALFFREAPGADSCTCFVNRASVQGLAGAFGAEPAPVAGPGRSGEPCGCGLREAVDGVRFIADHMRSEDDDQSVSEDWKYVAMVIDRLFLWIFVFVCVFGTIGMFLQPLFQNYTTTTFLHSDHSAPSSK
UniProt P32297, 32-505 limits assumed: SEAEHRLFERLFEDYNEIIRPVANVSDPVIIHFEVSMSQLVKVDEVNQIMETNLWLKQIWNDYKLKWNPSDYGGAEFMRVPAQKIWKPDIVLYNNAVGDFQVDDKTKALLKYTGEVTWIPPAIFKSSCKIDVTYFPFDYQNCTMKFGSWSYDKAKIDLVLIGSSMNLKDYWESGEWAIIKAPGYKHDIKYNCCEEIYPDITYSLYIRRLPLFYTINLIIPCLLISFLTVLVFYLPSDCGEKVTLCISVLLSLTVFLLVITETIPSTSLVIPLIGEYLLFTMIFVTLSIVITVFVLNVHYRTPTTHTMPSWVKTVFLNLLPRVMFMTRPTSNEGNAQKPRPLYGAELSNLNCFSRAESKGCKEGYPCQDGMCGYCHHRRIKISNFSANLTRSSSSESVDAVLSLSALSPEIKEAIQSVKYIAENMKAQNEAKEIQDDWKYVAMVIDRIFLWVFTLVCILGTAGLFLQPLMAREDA
UniProt P37136, 32-574 limits assumed: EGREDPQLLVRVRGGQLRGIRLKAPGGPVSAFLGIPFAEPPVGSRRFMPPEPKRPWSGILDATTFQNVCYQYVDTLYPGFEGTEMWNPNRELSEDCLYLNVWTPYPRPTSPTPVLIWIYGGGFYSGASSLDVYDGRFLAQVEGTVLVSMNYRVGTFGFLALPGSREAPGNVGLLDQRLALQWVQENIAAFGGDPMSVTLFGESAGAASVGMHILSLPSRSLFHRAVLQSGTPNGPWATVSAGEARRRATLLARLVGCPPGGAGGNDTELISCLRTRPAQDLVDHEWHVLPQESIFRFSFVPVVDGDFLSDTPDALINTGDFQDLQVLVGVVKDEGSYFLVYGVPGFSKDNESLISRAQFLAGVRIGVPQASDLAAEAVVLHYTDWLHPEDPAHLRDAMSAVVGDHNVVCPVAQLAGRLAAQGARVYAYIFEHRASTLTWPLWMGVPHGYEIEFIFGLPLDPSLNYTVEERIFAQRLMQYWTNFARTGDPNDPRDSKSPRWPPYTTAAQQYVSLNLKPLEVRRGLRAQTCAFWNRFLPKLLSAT

Structure (SMILES) | target or system | assay | test system | setting | scale | measurement | value
CCOC(=O)c1c(-c2ccc(Cl)cc2Cl)n(-c2nc(-c3ccc(Cl)cc3)c3c(NC(=O)c4ccccc4)nnc-3[nH]2)[nH]c1=O | K562 | SRB |  |  |  | GI50 | 2760 nM
CC[C@H](C)[C@@H]1NC(=O)[C@H](CCC(=O)O)NC(=O)[C@@H]2CCCN2C(=O)[C@H](Cc2c[nH]cn2)NC(=O)[C@H](CCCNC(=N)N)NC(=O)[C@H](C(C)C)NC(=O)[C@H](CC(N)=O)NC(=O)[C@@H]2CSSC[C@H](NC(=O)CN)C(=O)N[C@@H](CSSC[C@@H](C(N)=O)NC1=O)C(=O)N[C@@H](CO)C(=O)N[C@@H](Cc1c[nH]cn1)C(=O)N1CCC[C@H]1C(=O)N[C@@H](C(C)C)C(=O)N2 | Neuronal acetylcholine receptor; alpha3/beta2 (Homo sapiens, UniProt P17787+P32297) | ion current, antagonist, two-electrode voltage clamp | Xenopus oocytes | human, with: ACh 100 µM |  | IC50 | > 10000 nM
O=C(Nc1cccc(C2=NCCN2)c1)c1ccc(-c2ccc(C(=O)Nc3cccc(C4=NCCN4)c3)cc2)cc1 | Trypanosoma brucei | EdU labelling |  | concentration not given |  | nuclear DNA replication | no effect
COP(=O)(OC)Oc1ccc([N+](=O)[O-])cc1Cl | Acetylcholinesterase (Ache, Rattus norvegicus, UniProt P37136) | enzyme activity, inhibitor, discontinuous Ellman | rat, postnatal day 70, rat lung homogenate | 15 min, 37 °C |  | IC50 | 116 nM
CCOc1ccc(C2C(C#N)=C(N)Oc3c2c(C)nn3-c2ccc(Cl)cc2)cc1 (stereo not drawn) | Vero E6 |  |  | 0.4 µM |  | viability | 84.2%
N#Cc1c(-c2ccc(Cl)cc2Cl)n(-c2nc(-c3ccc(Cl)cc3)c3c(NC(=O)c4ccccc4)nnc-3[nH]2)[nH]c1=O | HL-60(TB) |  |  |  |  | GI50 | 2740 nM
CSCC[C@H](NC(=O)[C@H](CC(C)C)NC(=O)[C@H](CCCCN)NC(=O)[C@H](CCC(N)=O)NC(=O)[C@H](CCCNC(=N)N)NC(=O)[C@H](CCCCN)NC(=O)[C@H](CCCNC(=N)N)NC(=O)[C@H](CCC(N)=O)NC(=O)[C@@H](N)C(C)C)C(=O)N1CCC[C@H]1C(=O)O | human importin alpha1 | pull-down with immobilized compound | Jurkat cell lysate | concentration not given, with: 300 µM unlabelled peptide |  | competition of binding | ~20%
COC(=O)c1cc(Cl)ccc1NC(=O)CSc1ncc(S(=O)(=O)c2ccc(Br)cc2)c(=O)[nH]1 | dengue virus 2 | viral replication, single-cycle viral yield | New Guinea C | 5 µM |  | inhibition | > 90%
CC(C)CC(NC(=O)C(Cc1ccccc1)NC(=O)c1cnc(C(=O)NC(Cc2ccccc2)C(=O)NC(CC(C)C)B(O)O)cn1)B(O)O (stereo not drawn) | proteasome (human) | chymotrypsin-like activity, inhibitor, Proteasome-Glo | RPMI-8226 | 24 h |  | IC50 | 4.2 ± 0.38 nM
CC(C)C1CCC(N2CCC3(CC2)C(=O)N(CCNS(N)(=O)=O)Cc2ccccc23)CC1 (stereo not drawn) |  | antinociception, warm water tail withdrawal | rhesus monkey | subcutaneous |  | minimum full effective dose | 0.03 mg/kg
O=C(CSc1nccn1C1CCCCC1)Nc1cc(C(F)(F)F)ccc1Cl | Plasmodium falciparum | parasite growth, SYBR Green | 3D7 DHODH E182D | 72 h |  | EC50 | 1440 ± 390 nM
Cc1nn(-c2ccc(Cl)cc2)c2c1C(c1cccc(Cl)c1Cl)C(C#N)=C(N)O2 (stereo not drawn) | Vero E6 | MTT |  | 100 µM |  | viability | 47.7%
CC(=O)N[C@@H](C)C(=O)N[C@@H](Cc1c[nH]c2ccccc12)C(=O)N[C@@H](CO)C(=O)N[C@@H](Cc1ccc(OP(=O)(O)O)cc1)C(=O)N[C@@H](C)C(=O)N[C@@H](CC(=O)O)C(=O)N[C@@H](Cc1ccc(OP(=O)(O)O)cc1)C(=O)N[C@@H](C)C(=O)N[C@@H](C)C(N)=O | SHP-1 catalytic domain (ΔSH2) | phosphatase activity, substrate |  | pH 7.4 |  | kcat | 13 ± 1 s⁻¹
C(#Cc1n[nH]c2ncccc12)c1ccccn1 | PRAS40 Ser183 phosphorylation (mTORC1) | LanthaScreen | HEK293E | 60 min, with: insulin |  | IC50 | > 10000 nM
CC1(C)N=C(N)N=C(N)N1c1cccc(OCCCc2ccccc2)c1 | Escherichia coli | broth microdilution | ATCC 25922 | without thymidine |  | MIC90 | > 128 µM
Fc1ccc2[nH]cc(CNCC3(N4CCCC4)COC3)c2c1 | T98G | single-dose screen |  | 30 µM, 48 h | baseline: DMSO control | viability | 97.9%
Cc1cc(Nc2ccc(S(F)(F)(F)(F)F)cc2)n2nc(C(C)(F)F)nc2n1 | Plasmodium falciparum DHODH C276F | enzyme activity, inhibitor |  |  | baseline: mutant over wild type | IC50 fold increase | 10 to 20 fold
CC(=O)N[C@@H](CO)C(=O)N[C@@H](C)C(=O)N[C@@H](CO)C(=O)N[C@@H](C)C(=O)N[C@@H](CO)C(=O)N[C@@H](Cc1ccc(OP(=O)(O)O)cc1)C(=O)N[C@@H](CO)C(=O)N[C@@H](C)C(=O)N[C@@H](CO)C(=O)N[C@@H](C)C(N)=O | SHP-1 catalytic domain (ΔSH2) | phosphatase activity, substrate |  | pH 7.4 |  | kcat | 26 ± 4 s⁻¹
